Published values pooled from the literature.
Each numbered part is a random draw from the data of one study; scales do not carry over between parts. Positions count from the first letter of the parent shown.

Study 1 — technique: DHFR PCA, deep sequencing; matrix: yeast; together with: (+)-ABA 4.8 µM; baseline: wild-type fitted maximum; reading: higher = stronger binding; quantity: relative binding score
Target: ABI1, truncated, D143A, DHFR fusion (Arabidopsis thaliana)
Notes: methotrexate growth selection, single substitutions
Starting sequence: PYL1, truncated, DHFR fusion (Arabidopsis thaliana); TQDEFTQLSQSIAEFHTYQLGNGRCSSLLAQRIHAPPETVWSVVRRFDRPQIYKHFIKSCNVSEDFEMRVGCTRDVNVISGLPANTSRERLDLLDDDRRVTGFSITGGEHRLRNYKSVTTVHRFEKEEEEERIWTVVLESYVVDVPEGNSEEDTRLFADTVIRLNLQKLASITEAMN; partner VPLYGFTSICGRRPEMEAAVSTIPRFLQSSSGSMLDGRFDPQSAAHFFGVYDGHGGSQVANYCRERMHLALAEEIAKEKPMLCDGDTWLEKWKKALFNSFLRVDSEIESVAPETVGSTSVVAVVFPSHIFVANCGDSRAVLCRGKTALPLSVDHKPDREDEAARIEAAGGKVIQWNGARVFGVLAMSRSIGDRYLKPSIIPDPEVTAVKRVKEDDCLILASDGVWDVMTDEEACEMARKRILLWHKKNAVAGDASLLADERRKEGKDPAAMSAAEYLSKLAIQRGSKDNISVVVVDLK
L164K: 35%
A35C: 51.3%
A84D: 14.5%
G108N: -1.83%
N177F: 75.8%
E38N: 43.6%
A158P: -12.3%
V161T: 2.98%
L93V: 80.4%
C25Q: -29.6%
R99L: 83.8%
V137T: 0.945%
S27A: 39%
V100C: 49.6%
Q7K: 65.1%
S26K: 31.7%
V44A: 22.7%

Study 2 — technique: RNA Bind-n-Seq; molecule type: RNA; matrix: in vitro; tested at: 365 nM; baseline: no-protein control; reading: higher = stronger binding; quantity: RBNS enrichment (R)
Target: RNA binding protein fox-1 homolog 2, RRM domain, GST-SBP tag (RBFOX2, Homo sapiens, UniProt O43251-10, residues 100-194)
Notes: natural RNA segment, single round, ends assumed
Target sequence (chain): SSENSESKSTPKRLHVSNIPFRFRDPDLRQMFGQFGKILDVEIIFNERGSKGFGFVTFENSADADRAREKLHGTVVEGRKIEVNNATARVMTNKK
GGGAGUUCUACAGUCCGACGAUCAGUGCAAUCUUCGUUGUUUUUGUAUUUAUUUGUAUGUUCAGAUCCAAAGGAUCCGUUGUAAAAAUAUAUAUAUAUAAAUAUAUGUAUAUCCAGUGCAAUCAACUGUCAUUUGGAAUUCUCGGGUGCCAA: 1.63
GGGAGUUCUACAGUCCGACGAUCAUUGACAGUGUUGAAUUACCAACAGCCUGUGAAGAUCAGUUUGACCGGUGUGGACACGUGCUGGUUAAGCACUCAGGCCUACGUGGGCCGAGCGGGAUCUUGAUCAUGGGUGGAAUUCUCGGGUGCCAA: 0.199
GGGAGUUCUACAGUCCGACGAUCUAGCUUUGUGCCUGGACCCAGAGAGUGUGGGACUCCCCGCUUCAUCCCCACCGUCCCACUCCACAGCCUUCCCGAAACAUUCCCUGGCAAACAAAGGAACACUAGGAGAAUGGAAUUCUCGGGUGCCAA: 0.431
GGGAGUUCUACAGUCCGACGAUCGUCUUGAAGGUGUUCCCCACCCCGCCCAGGGGCUUGCACUUGGAGGACUACAGCACACCUGGUUUCCUUUCUUUCUGCCACAGAUCCUUCACAGACGAGAGACUGUUGUCUGGAAUUCUCGGGUGCCAA: 0.51
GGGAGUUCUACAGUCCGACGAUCUGUACCUCUGACUUUCUUGGCUCAGGUUCAGUCAGUUGCUCUUCCUCCUUGGCAAAGCCAUCUAGGUUCCAGGUGGGUGUCAUGCAUACCACAUGUGCACAGAGCCAGCUUGGAAUUCUCGGGUGCCAA: 0.133
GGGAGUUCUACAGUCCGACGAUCUAACUUUUGUUGCCUCUUAACGCCACCAAAUUUUAGGGUAAUUUGAUUAUGAAAGAGUGAAUUUUUCUGGACAGAAAAGGGAGAGCUACCAAAUUGUUUUUUUCUUUUUAUGGAAUUCUCGGGUGCCAA: 0.828
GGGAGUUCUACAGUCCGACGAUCCAGCCGUUUCCCAAGCCUGGGCAAAGCCCACCUUUGCCUCUGGCCAGAAGCCUCCCUUCUGUGCACAGGAGCCAGUUUCACAGAUGGAGAAGAUGUCUCAGAUGAAGGGAUGGAAUUCUCGGGUGCCAA: 0.683
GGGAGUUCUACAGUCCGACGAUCUGUAGAGGGAUGUCCCAAGCUUGUUUUCCAAUCAGUGUUAAGCUGUUUGAAACUCUCCUGUGUCUGUGUUUUGUUUGUGCGUGUGUGUGAGAGCACAUCAGUGUGUGCAGUGGAAUUCUCGGGUGCCAA: 12.3

Study 3 — target: BATF, bZIP domain (human); technique: DHFR protein complementation; matrix: yeast; baseline: wild-type JUN-FOS pair; reading: higher = stronger binding; quantity: binding fitness
Notes: single substitutions, most at no-binding floor
Starting sequence: JUN, bZIP domain (human); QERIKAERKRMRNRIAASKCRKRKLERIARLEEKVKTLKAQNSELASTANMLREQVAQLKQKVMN; partner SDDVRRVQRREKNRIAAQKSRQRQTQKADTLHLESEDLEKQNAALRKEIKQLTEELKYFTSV
L52N: -1.04 natural log
A46D: -0.434 natural log
L31N: -0.164 natural log
A49T: -0.316 natural log
K39Q: -0.155 natural log
V35R: -0.348 natural log
L38D: -1.14 natural log
L31H: -0.157 natural log
M51E: 0.0356 natural log
E32S: -0.0889 natural log
K36Y: -0.131 natural log
K34G: -0.18 natural log
L45R: -1.18 natural log
L38I: -0.588 natural log
R30N: -0.0137 natural log
T37G: 0.0133 natural log
T48D: -0.202 natural log
E54Y: -0.184 natural log
I28M: 0.00882 natural log
E32Y: -0.25 natural log
E54H: -0.0514 natural log
A57W: -0.0894 natural log

Study 4 — technique: protein binding microarray; molecule type: double-stranded DNA, one strand shown; matrix: in vitro; tested at: not given; baseline: not given; reading: higher = stronger binding; quantity: E-score
Target: Histone acetyltransferase KAT6A, both winged helices, GST fusion (KAT6A, Homo sapiens, UniProt Q92794, residues 1-181)
Notes: 8-mer, flanks averaged, mean of 2 arrays, mostly near background
Residues (chain): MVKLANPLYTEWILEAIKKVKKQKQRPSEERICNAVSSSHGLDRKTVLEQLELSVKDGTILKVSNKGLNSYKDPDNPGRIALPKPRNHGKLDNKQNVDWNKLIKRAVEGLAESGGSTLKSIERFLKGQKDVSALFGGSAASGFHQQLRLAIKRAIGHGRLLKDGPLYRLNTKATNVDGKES
CCGAGCCC: 0.0303
AAAGATCC: -0.0403
ACCAGTTC: 0.0424
ATAACGAT: -0.0399
ATCATGAG: -0.0306
ACTGCTCA: -0.0869
AACCAGCA: -0.155
GATTTTGC: -0.177
AATAATCA: 0.0791
CAGCCTAC: -0.064
ACTAAGCC: -0.0271
ATCGTACG: 0.103
ATTGTATA: 0.0474
ATCGCTTC: 0.0409
ATGCAAAG: -0.0706
GCTTTCCC: 0.105
ATATCGTG: 0.0281
ATGTGCAG: -0.146
AGACCGCT: 0.195
ATCACAAT: -0.0936
TTAAAGAA: -0.00801
CCGCAATA: 0.161
ACGGTAAA: 0.18
ATCTGTAA: -0.00768
CATTTCGA: -0.148

Study 5 — target: CCND3, cyclin fold, Cln2 fusion (human); technique: yeast growth competition, sequencing; matrix: yeast; notes: weak parent motif; baseline: not given; reading: higher = stronger binding; quantity: normalised enrichment score
Starting sequence: PKN2 docking peptide (human); VSAVQKLDFSDTM
VSAVQKLDFSDWM [T12W]: 0.144
VSAVQKLDFSDTY [M13Y]: 0.218
VSAVQKEDFSDTM [L7E]: 0.127
VSAGQKLDFSDTM [V4G]: -0.0446
CSAVQKLDFSDTM [V1C]: 0.113
RSAVQKLDFSDTM [V1R]: 0.125
VSQVQKLDFSDTM [A3Q]: 0.0864
VSAVQKLDFSDTK [M13K]: -0.00513
DSAVQKLDFSDTM [V1D]: 0.0723
VSAVQKLDFSDTC [M13C]: 0.156
VSAVQKGDFSDTM [L7G]: 0.0547
VSAVQKLDFSDTS [M13S]: 0.13
VSAVQKLDFSTTM [D11T]: 0.0959
VSAVQKLPFSDTM [D8P]: 0.12
VSAVQELDFSDTM [K6E]: 0.0747
VSAVQKLDFSDLM [T12L]: 0.179
VSAVQKLDRSDTM [F9R]: 0.177
VSAVQKLDFSDTG [M13G]: 0.144
HSAVQKLDFSDTM [V1H]: 0.157
VSAVQKLDGSDTM [F9G]: 0.14
VSGVQKLDFSDTM [A3G]: 0.0281
VSAVQKLQFSDTM [D8Q]: 0.148
VSNVQKLDFSDTM [A3N]: 0.0616
VKAVQKLDFSDTM [S2K]: 0.0768
VSAVQKLDFSDIM [T12I]: 0.113

Some of these lines once more (study 1):
A84D: 14.5%
G108N: -1.83%
N177F: 75.8%
E38N: 43.6%
A158P: -12.3%
V161T: 2.98%
L93V: 80.4%
C25Q: -29.6%
R99L: 83.8%
V137T: 0.945%
